Experimental data pooled from the literature.
Every numbered part comes from another study and shows a few of its results, in no order.
Sequence of UniProt Q5BJF2 (whole entry, looked up): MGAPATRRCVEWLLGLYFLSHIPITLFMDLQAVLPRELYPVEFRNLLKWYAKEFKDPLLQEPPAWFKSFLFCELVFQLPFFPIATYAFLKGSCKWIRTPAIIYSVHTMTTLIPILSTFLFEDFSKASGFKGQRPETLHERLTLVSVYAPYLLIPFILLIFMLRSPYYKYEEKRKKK

Set 1 — method: protein-binding microarray; molecule type: double-stranded DNA, one strand shown; matrix: in vitro; concentration: not given; reading: higher = stronger binding
Target: Protein C-ets-1 (ETS1, Homo sapiens, UniProt P14921, residues 1-441, Y397A, full length assumed)
Setting: k-mer, scored over probes, only values ≥0.25
Construct (chain): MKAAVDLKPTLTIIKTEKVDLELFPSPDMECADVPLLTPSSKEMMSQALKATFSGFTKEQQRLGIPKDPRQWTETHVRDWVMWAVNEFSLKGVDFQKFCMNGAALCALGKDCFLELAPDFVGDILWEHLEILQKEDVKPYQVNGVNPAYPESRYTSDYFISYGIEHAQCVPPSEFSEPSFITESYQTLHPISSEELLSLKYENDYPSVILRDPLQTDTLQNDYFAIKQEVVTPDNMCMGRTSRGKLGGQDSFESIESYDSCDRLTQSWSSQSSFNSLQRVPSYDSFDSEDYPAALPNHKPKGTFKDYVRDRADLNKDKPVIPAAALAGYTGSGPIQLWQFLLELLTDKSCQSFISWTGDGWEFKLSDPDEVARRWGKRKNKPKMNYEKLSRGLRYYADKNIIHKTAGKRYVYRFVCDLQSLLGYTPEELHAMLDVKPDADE
| Oligonucleotide | E-score |
| --- | --- |
| CAATTGGC | 0.312 |
| TGCCGACA | 0.268 |
| TCGTCAAA | 0.34 |
| GCGCGGAA | 0.253 |
| CAACATAA | 0.28 |
| ACAACTTC | 0.259 |
| CGCCCACA | 0.261 |
| ACGTCAAA | 0.279 |

Set 2 — read-out: enzyme activity; action: inhibitor; concentration: 0.5 µM; baseline: control
Target: Inhibitor of nuclear factor kappa-B kinase subunit alpha (CHUK, Homo sapiens, UniProt O15111)
Target sequence (O15111 1-745): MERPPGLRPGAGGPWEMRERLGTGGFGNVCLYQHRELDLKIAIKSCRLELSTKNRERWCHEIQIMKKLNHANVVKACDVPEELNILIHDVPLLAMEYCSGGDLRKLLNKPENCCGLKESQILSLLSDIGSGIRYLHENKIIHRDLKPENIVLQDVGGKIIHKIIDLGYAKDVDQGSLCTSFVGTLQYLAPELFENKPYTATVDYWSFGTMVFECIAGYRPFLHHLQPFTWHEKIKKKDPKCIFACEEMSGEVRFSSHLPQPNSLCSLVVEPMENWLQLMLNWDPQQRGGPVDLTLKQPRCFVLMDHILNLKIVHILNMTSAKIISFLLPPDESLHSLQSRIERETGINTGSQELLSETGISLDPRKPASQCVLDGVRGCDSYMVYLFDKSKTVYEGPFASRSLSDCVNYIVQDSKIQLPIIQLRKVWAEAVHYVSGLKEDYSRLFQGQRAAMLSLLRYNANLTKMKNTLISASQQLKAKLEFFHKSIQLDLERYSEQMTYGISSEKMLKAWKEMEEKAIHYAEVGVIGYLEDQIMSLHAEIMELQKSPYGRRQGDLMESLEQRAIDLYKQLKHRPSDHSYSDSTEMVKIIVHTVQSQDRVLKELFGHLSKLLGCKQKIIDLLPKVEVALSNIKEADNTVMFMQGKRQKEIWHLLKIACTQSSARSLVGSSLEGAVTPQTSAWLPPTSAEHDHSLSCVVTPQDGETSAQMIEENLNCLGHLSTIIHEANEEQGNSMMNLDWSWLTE
| SMILES | remaining activity [%] |
| --- | --- |
| Cc1ccc(NC2=CC(=O)c3sc(C)nc3C2=O)cc1 | 91.9 |
| Oc1ccc(Nc2nc(-c3ccc(Cl)cc3)cs2)cc1 | 104 |
| O=C1Cc2c([nH]c3ccc([N+](=O)[O-])cc23)-c2ccccc2N1 | 103 |
| COc1cc(Nc2c(C#N)cnc3cc(OCCCN4CCN(C)CC4)c(OC)cc23)c(Cl)cc1Cl | 98.1 |
| CC#CC(=O)Nc1cc2c(Nc3ccc(F)c(Cl)c3)ncnc2cn1 | 92.1 |
| COc1ccc(S(=O)(=O)N(CCO)c2ccccc2CN(C)CC=Cc2ccc(Cl)cc2)cc1 | 92.7 |

Set 3 — method: RNA Bind-n-Seq; molecule type: RNA; matrix: in vitro; concentration: 365 nM; baseline: no-protein control; reading: higher = stronger binding
Target: RNA binding protein fox-1 homolog 2, RRM domain, GST-SBP tag (RBFOX2, Homo sapiens, UniProt O43251-10, residues 100-194)
Setting: natural RNA segment, single round, ends assumed
All sequences stand within: GGGAGUUCUACAGUCCGACGAUC … UGGAAUUCUCGGGUGCCAA
| Oligonucleotide | RBNS enrichment (R) |
| --- | --- |
| ACAGCUUUUAACUAAGUUUGUUGUAGGAGAAAUGACUGCGGUAAUUUCCAGUUCUAUAAUGUUUCAUGUUGAGCCAAAAGAGUAUAUCUUGCACUUUAAAAACGCUGCGU | 0.558 |
| UCCUAUCACAUACCAAGUAGUGAGUGGAGAAAGUAUUUUCAGAUUCAAGAAAACUUUGGAAAGUCAGGAACUAAGCUGCUUGGAAAUCAGUGCCACAAGCAUGACCUUGG | 2.08 |
| AGAACCUGCCUCCCUCCCAGAAGUCACAGCACCUGCUUCUCAGCUCCUCAUGUGUGCAUGUGUGCCAGAGCGCCAGGCAGGGUGGUUGCCUCAUCACCUCAUGGCCAAUU | 3.09 |
| CCCCACCUGGGUCAAGGGUUCAGUAUUUUAGUCUAAAACUUCAGAAAGUCAAGCAUCACUUAAGACAUGCCCAGGGCUCCAGCUUGCCCUCAGCAGUCCUUCAGGACUUC | 0.883 |
| ACAUGUGAAGUGUUUAUCAUAAGAUCCUCAGGAGUCAGUAUUGCAUGAUGCUCCCCUUAAUUGUCACACUGAAAUUAUGUAGUAAAUCAGAAAAUACCUGAAAAGCAACU | 64.4 |
| UUUUAGUGCCUGUUGAGGACUUGAUUUCUUCUUGAUUUUUCUCUUAAUCUGGUUCAUUUGAAAUUUCUCACUUCUUAACCAUAGAGCUAAGUUAUUGUCAAAACUGGGCA | 5.11 |
| GUGAGUUUGUCUUUGUUACAUUCCAGUGUUUCUGCCUCUUGGCAUGCUUAAAGCACGGCUUACUUCAUCUGCUCCUUACACACUAAAAUGCUGUUAGUGUGCUCAACUAC | 0.496 |
| UACCAAGAUAGGGAAAGAAAGAAAUAAUGACUGCCAGCCCUGGACCUCAGAAUUCUCAGGUAUGGAAACACUCAAGAGCUGCCUGGUAUGAAGCAAAGAGGAUCCUGGGC | 1.07 |

Further values, each from its own experiment
| Compound | target | assay | endpoint | result |
| --- | --- | --- | --- | --- |
| COc1cc(-c2cn(C3CCc4ccccc4N(CC(F)(F)F)C3=O)nn2)ccc1-n1ccc(C)n1 (centres unmarked) | Sigma intracellular receptor 2 (TMEM97, Homo sapiens, UniProt Q5BJF2) | binding | Ki | 835 nM |

For quick reference, copied from above (set 1):
| Oligonucleotide | E-score |
| --- | --- |
| CGCCCACA | 0.261 |
| ACAACTTC | 0.259 |
| CAACATAA | 0.28 |
